Measurements gathered from unrelated publications.
Each line is one published result; not all experiments were run side by side. Numbers after ± are the reported error. In brackets after ≈: the same amount, converted by molar mass.
NOX5: NADPH oxidase 5 (NOX5, Homo sapiens, UniProt Q96PH1)
Chrna3/Chrnb2/Chrna6 with beta3 subunit: Chrna3/Chrnb2/Chrna6, with beta3 subunit (Rattus norvegicus, UniProt P04757+P12390+P43143)
TRPA1: Transient receptor potential cation channel subfamily A member 1 (TRPA1, Homo sapiens, UniProt O75762)
Salicylate synthetase, Irp9: Salicylate synthetase, Irp9 (Yersinia enterocolitica, UniProt Q9X9I8)
ACHE: Acetylcholinesterase (ACHE, Homo sapiens, UniProt P22303)
NOX4: NADPH oxidase 4 (NOX4, Homo sapiens, UniProt Q9NPH5)
Neuronal acetylcholine receptor; alpha3/beta2: Neuronal acetylcholine receptor; alpha3/beta2 (Rattus norvegicus, UniProt P04757+P12390)
ache: Acetylcholinesterase (ache, Electrophorus electricus, UniProt O42275)

By UniProt entry, the sequences of proteins in these tests, tags left out. Residues count along the entry.
UniProt Q96PH1, 1-719 isoform 4: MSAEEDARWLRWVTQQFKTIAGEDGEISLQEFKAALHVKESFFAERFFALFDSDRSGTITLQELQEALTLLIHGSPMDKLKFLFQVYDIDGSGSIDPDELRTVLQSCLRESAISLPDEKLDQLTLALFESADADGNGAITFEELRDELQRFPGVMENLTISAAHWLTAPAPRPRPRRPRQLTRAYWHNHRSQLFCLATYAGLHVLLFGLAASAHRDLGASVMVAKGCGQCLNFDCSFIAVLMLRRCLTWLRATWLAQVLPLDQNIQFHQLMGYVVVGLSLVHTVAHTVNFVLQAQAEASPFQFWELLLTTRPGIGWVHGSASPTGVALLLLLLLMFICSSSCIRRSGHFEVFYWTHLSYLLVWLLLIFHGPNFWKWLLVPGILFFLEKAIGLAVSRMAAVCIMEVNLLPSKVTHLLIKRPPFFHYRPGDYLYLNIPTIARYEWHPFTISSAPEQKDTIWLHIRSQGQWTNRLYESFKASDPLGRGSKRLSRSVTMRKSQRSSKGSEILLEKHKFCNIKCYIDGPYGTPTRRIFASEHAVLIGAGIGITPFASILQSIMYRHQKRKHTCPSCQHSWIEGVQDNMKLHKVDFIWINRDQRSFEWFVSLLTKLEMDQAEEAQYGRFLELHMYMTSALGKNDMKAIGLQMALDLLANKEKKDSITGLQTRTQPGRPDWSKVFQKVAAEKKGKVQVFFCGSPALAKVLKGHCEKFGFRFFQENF
UniProt P04757, whole entry, looked up: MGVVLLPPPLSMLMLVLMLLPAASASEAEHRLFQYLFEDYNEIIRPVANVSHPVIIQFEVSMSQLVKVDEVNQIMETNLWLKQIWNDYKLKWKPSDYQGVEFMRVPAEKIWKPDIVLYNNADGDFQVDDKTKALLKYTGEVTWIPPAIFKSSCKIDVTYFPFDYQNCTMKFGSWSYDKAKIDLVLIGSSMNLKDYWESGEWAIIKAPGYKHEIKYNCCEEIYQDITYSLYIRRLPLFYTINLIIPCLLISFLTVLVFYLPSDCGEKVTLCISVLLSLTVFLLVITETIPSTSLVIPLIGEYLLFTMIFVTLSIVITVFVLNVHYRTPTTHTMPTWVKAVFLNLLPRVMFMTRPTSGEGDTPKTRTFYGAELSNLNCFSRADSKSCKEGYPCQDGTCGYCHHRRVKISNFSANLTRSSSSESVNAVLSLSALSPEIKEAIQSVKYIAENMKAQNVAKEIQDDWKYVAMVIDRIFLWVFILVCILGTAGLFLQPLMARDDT
UniProt P04757, 26-499 limits assumed: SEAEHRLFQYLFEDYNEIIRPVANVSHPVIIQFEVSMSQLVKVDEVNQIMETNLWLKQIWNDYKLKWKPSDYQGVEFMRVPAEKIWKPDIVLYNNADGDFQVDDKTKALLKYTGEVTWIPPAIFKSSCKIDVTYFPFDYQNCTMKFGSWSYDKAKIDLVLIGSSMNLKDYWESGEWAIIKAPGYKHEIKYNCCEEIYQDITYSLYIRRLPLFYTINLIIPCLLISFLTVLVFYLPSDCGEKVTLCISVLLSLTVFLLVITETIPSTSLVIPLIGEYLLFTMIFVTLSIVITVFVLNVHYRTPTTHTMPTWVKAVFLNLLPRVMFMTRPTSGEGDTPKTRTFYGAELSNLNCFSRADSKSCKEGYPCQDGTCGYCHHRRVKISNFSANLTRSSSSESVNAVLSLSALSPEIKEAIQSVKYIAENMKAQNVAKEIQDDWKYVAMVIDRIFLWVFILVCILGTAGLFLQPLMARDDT
UniProt P12390, whole entry, looked up: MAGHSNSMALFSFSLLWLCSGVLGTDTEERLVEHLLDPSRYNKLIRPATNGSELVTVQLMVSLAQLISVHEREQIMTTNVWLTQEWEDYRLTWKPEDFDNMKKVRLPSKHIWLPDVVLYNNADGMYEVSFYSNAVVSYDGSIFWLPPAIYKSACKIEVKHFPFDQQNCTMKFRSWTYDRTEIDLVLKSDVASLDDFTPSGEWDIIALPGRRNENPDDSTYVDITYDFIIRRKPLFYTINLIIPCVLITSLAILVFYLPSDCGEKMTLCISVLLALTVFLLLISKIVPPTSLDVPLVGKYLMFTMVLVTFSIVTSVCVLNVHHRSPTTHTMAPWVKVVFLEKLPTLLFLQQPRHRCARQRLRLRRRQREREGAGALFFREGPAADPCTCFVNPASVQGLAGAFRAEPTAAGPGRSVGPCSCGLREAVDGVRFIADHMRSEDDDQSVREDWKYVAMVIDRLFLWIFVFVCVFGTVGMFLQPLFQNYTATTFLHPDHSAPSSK
UniProt P12390, 25-500 limits assumed: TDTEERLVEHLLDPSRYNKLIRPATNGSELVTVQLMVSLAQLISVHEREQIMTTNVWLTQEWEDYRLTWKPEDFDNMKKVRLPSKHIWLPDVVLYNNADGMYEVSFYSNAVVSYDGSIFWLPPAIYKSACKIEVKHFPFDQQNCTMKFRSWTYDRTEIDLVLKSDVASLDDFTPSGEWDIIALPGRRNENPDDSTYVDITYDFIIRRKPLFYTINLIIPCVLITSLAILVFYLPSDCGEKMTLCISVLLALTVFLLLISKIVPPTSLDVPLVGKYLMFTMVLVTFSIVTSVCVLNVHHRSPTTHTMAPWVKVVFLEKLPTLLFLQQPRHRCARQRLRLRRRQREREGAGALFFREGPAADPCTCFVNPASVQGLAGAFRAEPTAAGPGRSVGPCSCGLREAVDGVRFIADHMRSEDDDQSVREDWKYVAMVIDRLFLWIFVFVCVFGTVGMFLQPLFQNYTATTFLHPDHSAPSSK
UniProt P43143, whole entry M241L/F253L/V303I/V320I/I327V/A333T/K339T, looked up: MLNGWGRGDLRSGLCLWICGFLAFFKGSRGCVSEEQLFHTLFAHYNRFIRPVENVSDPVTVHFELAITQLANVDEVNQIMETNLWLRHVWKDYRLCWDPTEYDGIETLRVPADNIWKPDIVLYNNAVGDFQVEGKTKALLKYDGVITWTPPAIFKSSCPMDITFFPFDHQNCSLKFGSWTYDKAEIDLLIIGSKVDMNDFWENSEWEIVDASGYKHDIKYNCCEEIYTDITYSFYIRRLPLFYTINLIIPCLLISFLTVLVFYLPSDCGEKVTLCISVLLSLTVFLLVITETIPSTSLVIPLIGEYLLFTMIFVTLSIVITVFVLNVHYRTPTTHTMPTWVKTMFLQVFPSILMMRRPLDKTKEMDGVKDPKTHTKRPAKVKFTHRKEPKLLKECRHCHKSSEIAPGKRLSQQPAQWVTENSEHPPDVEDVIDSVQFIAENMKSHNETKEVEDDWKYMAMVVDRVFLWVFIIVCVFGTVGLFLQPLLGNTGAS
UniProt O75762, whole entry: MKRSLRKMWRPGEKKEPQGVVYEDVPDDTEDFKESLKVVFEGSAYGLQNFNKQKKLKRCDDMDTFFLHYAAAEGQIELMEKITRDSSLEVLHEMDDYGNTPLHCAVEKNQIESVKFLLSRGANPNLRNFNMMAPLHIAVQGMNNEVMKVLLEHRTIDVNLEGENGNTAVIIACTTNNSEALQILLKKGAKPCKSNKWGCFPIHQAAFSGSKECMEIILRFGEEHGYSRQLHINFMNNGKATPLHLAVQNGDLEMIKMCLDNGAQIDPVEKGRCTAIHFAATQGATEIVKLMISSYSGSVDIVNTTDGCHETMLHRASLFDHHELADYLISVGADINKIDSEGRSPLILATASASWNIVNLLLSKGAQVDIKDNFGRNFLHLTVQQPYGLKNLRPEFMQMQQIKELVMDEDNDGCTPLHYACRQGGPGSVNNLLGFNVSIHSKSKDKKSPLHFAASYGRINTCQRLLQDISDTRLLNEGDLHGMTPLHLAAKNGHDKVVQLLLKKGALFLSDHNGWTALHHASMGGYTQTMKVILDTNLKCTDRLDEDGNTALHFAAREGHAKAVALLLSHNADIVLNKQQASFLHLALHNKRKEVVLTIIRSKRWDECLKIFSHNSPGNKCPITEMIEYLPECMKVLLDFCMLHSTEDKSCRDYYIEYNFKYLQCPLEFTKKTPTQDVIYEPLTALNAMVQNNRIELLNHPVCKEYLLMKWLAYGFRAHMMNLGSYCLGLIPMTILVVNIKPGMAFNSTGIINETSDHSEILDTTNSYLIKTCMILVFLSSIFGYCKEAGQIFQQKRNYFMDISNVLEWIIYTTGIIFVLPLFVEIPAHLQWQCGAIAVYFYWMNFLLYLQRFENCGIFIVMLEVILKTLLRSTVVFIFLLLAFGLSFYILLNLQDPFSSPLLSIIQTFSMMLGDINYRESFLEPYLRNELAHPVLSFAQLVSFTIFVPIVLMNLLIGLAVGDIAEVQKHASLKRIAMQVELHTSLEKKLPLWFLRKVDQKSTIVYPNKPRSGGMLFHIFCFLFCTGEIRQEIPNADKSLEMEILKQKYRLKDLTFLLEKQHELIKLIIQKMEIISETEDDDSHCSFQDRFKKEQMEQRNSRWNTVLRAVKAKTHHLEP
UniProt Q9X9I8, 1-434: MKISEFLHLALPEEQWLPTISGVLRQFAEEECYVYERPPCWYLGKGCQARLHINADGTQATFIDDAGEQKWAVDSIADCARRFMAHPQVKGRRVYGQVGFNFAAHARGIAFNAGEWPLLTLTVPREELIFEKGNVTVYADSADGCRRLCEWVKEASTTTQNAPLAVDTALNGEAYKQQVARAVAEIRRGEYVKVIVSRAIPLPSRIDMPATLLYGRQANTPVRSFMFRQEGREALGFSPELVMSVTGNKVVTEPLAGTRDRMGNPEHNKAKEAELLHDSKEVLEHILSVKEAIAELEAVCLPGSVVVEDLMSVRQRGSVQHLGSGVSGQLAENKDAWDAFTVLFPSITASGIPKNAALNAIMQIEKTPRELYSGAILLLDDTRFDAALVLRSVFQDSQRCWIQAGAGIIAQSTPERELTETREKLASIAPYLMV
UniProt Q9NPH5, whole entry: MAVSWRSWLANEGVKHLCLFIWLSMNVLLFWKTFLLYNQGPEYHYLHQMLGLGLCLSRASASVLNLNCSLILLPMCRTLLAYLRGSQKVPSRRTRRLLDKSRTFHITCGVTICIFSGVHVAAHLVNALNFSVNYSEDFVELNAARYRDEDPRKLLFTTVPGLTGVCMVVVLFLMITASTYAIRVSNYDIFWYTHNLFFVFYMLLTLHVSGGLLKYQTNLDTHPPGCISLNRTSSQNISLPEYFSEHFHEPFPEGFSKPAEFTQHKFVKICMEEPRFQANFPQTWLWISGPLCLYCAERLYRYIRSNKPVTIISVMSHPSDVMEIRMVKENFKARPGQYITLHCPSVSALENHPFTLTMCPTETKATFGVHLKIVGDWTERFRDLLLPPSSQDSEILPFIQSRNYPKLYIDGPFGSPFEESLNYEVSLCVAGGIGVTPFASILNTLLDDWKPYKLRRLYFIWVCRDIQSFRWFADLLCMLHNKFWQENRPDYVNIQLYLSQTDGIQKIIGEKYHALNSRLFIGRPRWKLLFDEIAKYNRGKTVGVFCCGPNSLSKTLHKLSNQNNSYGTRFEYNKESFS
UniProt P04839, whole entry, looked up: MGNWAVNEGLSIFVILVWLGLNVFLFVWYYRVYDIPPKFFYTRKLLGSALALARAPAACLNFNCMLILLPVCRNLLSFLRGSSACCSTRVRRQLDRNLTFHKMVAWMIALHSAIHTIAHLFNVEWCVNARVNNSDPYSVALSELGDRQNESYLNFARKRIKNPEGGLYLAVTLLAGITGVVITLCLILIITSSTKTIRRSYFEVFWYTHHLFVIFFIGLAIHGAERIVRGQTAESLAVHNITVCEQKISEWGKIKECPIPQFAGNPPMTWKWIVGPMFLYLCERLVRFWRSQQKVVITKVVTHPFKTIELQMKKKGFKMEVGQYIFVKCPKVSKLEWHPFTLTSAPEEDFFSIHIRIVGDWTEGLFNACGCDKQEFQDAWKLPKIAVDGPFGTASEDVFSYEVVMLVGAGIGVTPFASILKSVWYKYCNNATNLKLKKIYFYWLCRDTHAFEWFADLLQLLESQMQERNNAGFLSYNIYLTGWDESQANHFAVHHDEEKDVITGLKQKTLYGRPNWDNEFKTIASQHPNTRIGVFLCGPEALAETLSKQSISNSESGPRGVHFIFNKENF
UniProt P0A9J8, 1-92 limits assumed: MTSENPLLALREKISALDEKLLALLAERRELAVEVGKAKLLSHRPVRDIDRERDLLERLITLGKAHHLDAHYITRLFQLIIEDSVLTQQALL
UniProt P21913, 31-282 limits assumed: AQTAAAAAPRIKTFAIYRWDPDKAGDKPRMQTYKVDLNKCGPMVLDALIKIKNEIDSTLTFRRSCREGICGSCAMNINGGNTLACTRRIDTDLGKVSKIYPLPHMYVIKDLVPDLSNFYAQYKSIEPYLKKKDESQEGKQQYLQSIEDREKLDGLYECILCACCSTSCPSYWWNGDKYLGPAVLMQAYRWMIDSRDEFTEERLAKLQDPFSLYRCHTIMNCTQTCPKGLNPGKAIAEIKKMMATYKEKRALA
UniProt Q641Z9, 30-169 limits assumed: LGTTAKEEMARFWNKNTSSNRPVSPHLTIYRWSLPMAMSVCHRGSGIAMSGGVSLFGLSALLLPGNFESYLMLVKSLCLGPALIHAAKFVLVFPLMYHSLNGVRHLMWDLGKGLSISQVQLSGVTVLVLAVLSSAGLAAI
UniProt C7C422, 36-270 limits assumed: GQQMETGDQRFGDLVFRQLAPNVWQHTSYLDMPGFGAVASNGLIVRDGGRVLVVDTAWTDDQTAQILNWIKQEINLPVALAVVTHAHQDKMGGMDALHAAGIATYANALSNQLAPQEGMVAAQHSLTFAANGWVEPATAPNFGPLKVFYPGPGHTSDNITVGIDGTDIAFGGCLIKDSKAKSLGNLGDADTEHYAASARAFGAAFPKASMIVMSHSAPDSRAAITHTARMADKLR

`c1ccc(Cn2nnc3c(Sc4nc5ncccc5o4)ncnc32)cc1` has an IC50 of 3.6 ± 0.3 µM (NOX5; enzyme activity, inhibitor, Amplex Red; cell-free membranes).
With `CC(C)[C@@H]1NC(=O)[C@H](CO)NC(=O)[C@@H]2CSSC[C@H](NC(=O)CN)C(=O)N[C@@H](CSSC[C@@H](C(N)=O)NC(=O)[C@H](CCCNC(=N)N)NC(=O)[C@H](CCC(=O)O)NC(=O)[C@@H]3CCCN3C(=O)[C@H](Cc3c[nH]cn3)NC(=O)[C@H](CC(N)=O)NC1=O)C(=O)N[C@@H](CO)C(=O)N[C@@H](Cc1c[nH]cn1)C(=O)N1CCC[C@H]1C(=O)N[C@@H](C)C(=O)N2` the IC50 was 0.054 µM (Chrna3/Chrnb2/Chrna6 with beta3 subunit; ion current, antagonist, two-electrode voltage clamp; Xenopus laevis oocytes; added: 100 µM acetylcholine).
For `CNC(=O)Oc1ccc2c(c1)[C@]1(C)CCN(C)[C@@H]1N2C`, the IC50 was 0.0083 µM (Acetylcholinesterase (Ace, Anopheles gambiae, UniProt Q869C3); enzyme activity, inhibitor, Ellman; 10 min, added: acetylthiocholine).
With `C=C(C)[C@@H]1[C@H]2OC(=O)[C@@H]1[C@]1(O)C[C@H]3O[C@]34C(=O)O[C@H]2[C@]14C` the IC50 was 3.7 µM (GABA-A receptor; alpha-1/beta-3/gamma-2 (Homo sapiens, UniProt P14867+P18507+P28472); chloride current, inhibitor, whole-cell voltage clamp; L929; 3 min preincubation, added: GABA at EC90).
With `C[C@H]1[C@H](F)C[C@@H](C(=O)NCc2cc(-c3cnc(C(F)(F)F)nc3)ncc2C(F)(F)F)N1S(=O)(=O)c1ccc(F)cc1` the IC50 was 0.095 µM (TRPA1; calcium influx, antagonist, FlexStation calcium; HEK-293T transfected; added: CS gas at EC50).
With `O=C(O)c1cccc(S(=O)(=O)Nc2ccccc2C(=O)O)c1` the IC50 was over 160 µM (Salicylate synthetase, Irp9; salicylate production, inhibitor; pH 7.5, 25 °C, added: chorismate 2 µM).
For `COc1ccc(C(=O)NC(Sc2ccc(Cl)cc2)C(Cl)(Cl)Cl)cc1` (centres unmarked), the IC50 was 2.23 ± 0.58 µM (TRPA1; MO-induced calcium influx, antagonist, FLIPR calcium; 3 min preincubation, added: 30 µM mustard oil).
`C[C@H](Cc1ccc(O)c(O)c1)[C@@H](C)Cc1ccc(O)c(O)c1` — result for “amount in dermis”: 7.67 ± 1.28 µg (human skin; 3% solution, 8 h, skin UV-treated 30 min).
`COP(=O)(OC)O/C(C)=C1/CCOC1=O` has an IC50 of over 1000 µM (ACHE; enzyme activity, inhibitor, Ellman; 30 min, 25 °C).
For `c1ccc(Cn2nnc3c(Sc4nc5ccccc5[nH]4)ncnc32)cc1`, the IC50 was over 100 µM (NOX4; enzyme activity, inhibitor, Amplex Red; cell-free membranes).
`CCN(CC)C(=O)Oc1ccc(C(=O)Nc2cccc3cc[nH]c23)cc1`: “association rate constant” 160000 ± 10000 M⁻¹ s⁻¹ (Glutamate receptor ionotropic, NMDA 2D, with GluN1 (Rattus norvegicus, UniProt Q62645)).
The MIC of `CCCCCCC1c2ccc(O)cc2Oc2cc(O)ccc21` is reported as over 373 mg/L (Klebsiella spp.).
The IC50 of `Cc1ccc2nc(Sc3ncnc4c3nnn4Cc3ccccc3)oc2c1` is reported as over 100 µM (NADPH oxidase 2 (CYBB, Homo sapiens, UniProt P04839); enzyme activity, inhibitor, MCLA chemiluminescence; cell-free membranes).
The IC50 of `COc1cc2oc3ccc(O)cc3c(=O)c2c(OC)c1OC` is reported as 13.9 ± 1.72 µM (ACHE; enzyme activity, inhibitor).
Under “log2 fold change”, `CCN1CCN(Cc2ccc(NC(=O)c3ccc(C)c(/C=C/c4cnc5[nH]ccc5c4OC)c3)cc2C(F)(F)F)CC1` is recorded as -2.32 (FIP1L1-PDGFRA fusion; kinase-CDC37 interaction, cell-based kinome screen; 5 µM; baseline: vehicle).
For `FC(F)(F)c1ccc2nc(Sc3ncnc4c3nnn4Cc3ccccc3)oc2c1`, the IC50 was 0.3 ± 0.1 µM (NOX5; enzyme activity, inhibitor, Amplex Red; cell-free membranes).
For `CC(C)C[C@@H]1NC(=O)[C@H](CCC(=O)O)NC(=O)[C@@H]2CCCN2C(=O)[C@H](Cc2c[nH]cn2)NC(=O)[C@H](CC(N)=O)NC(=O)[C@H](CC(C)C)NC(=O)[C@H](CO)NC(=O)[C@@H]2CSSC[C@H](NC(=O)CN)C(=O)N[C@@H](CSSC[C@@H](C(N)=O)NC1=O)C(=O)N[C@@H](CO)C(=O)N[C@@H](Cc1c[nH]cn1)C(=O)N1CCC[C@H]1C(=O)N[C@@H](C)C(=O)N2`, the IC50 was 0.0106 µM (Neuronal acetylcholine receptor; alpha3/beta2; ion current, antagonist, two-electrode voltage clamp; Xenopus laevis oocytes; added: 100 µM acetylcholine).
The IC50 of `O=[N+]([O-])c1cc(S(=O)(=O)c2cc([N+](=O)[O-])c(O)c([N+](=O)[O-])c2)cc([N+](=O)[O-])c1O` is reported as 82 ± 2 µM (Bifunctional chorismate mutase/prephenate dehydratase, chorismate mutase domain (pheA, Escherichia coli, UniProt P0A9J8); chorismate consumption, inhibitor; 37 °C, added: chorismate 600 µM).
`CC(C)NCC(O)COc1ccc(CC(N)=O)cc1` (centres unmarked) gave an IC50 of 0.2 µM (Beta-1 adrenergic receptor, high-affinity state (Cavia porcellus, UniProt H0W3H1); binding; lung membranes; high-affinity site, added: [3H]dihydroalprenolol 8 nM).
For `CC#C/C(=N\OC[C@H]1COCCN1)c1ccc2ncnc(Nc3ccc(OCc4cccc(F)c4)c(Cl)c3)c2c1`, the inhibition was -3.4% (Mitogen-activated protein kinase 14 (MAPK14, Homo sapiens, UniProt Q16539); kinase activity; 10 µM).
The IC50 of `CC(C)C[C@@H]1NC(=O)[C@H](CCC(=O)O)NC(=O)[C@@H]2CCCN2C(=O)[C@H](Cc2c[nH]cn2)NC(=O)[C@H](CCCCC(=O)O)NC(=O)[C@H](CC(C)C)NC(=O)[C@H](Cc2c[nH]cn2)NC(=O)[C@@H]2CSSC[C@H](NC(=O)CN)C(=O)N[C@@H](CSSC[C@@H](C(N)=O)NC1=O)C(=O)N[C@@H](CO)C(=O)N[C@@H](Cc1c[nH]cn1)C(=O)N1CCC[C@H]1C(=O)N[C@@H](C)C(=O)N2` is reported as 0.0316 µM (Neuronal acetylcholine receptor subunit alpha-7 (Chrna7, Rattus norvegicus, UniProt Q05941); ACh-evoked current, antagonist, two-electrode voltage clamp; Xenopus laevis oocytes; added: ACh 300 µM).
The IC50 of `O=c1oc2cc(Br)c(O)c(Br)c2s1` is reported as 160 ± 10 µM (Salicylate synthetase, Irp9; pyruvate production, inhibitor; 25 °C, added: chorismate 10 µM).
`COc1ccc2cc([C@H](C)C(=O)OCc3ccc(OC(=O)OCC[Si](C)(C)C)cc3)ccc2c1` has an IC50 of 0.83 ± 0.15 µM (ache; enzyme activity, inhibitor, Ellman).
With `CC(C)C[C@@H]1NC(=O)[C@H](CCC(=O)O)NC(=O)[C@@H]2CCCN2C(=O)[C@H](Cc2c[nH]cn2)NC(=O)[C@H](CC(N)=O)NC(=O)[C@H](C(C)C)NC(=O)[C@H]([C@@H](C)O)NC(=O)[C@@H]2CSSC[C@H](NC(=O)CN)C(=O)N[C@@H](CSSC[C@@H](C(N)=O)NC1=O)C(=O)N[C@@H](CO)C(=O)N[C@@H](Cc1c[nH]cn1)C(=O)N1CCC[C@H]1C(=O)N[C@@H](C)C(=O)N2` the IC50 was 0.00512 µM (Chrna3/Chrnb2/Chrna6 with beta3 subunit; ion current, antagonist, two-electrode voltage clamp; Xenopus laevis oocytes; added: 100 µM acetylcholine).
`COC(=O)Oc1c([N+](=O)[O-])cc2oc(=O)sc2c1[N+](=O)[O-]` gave an IC50 of 5 ± 2 µM (Salicylate synthetase, Irp9; pyruvate production, inhibitor; 25 °C, added: chorismate 10 µM).
With `Cc1cccc2oc(Sc3ncnc4c3nnn4Cc3ccccc3)nc12` the IC50 was over 100 µM (NOX4; enzyme activity, inhibitor, Amplex Red; cell-free membranes).
For `CCCCCCCCCC(=O)c1c(O)nc(OC)c(OC)c1O`, the IC50 was 0.0099 ± 0.0019 µM (Succinate dehydrogenase complex (complex II) (Rattus norvegicus, UniProt P21913+Q641Z9+Q6PCT8); enzyme activity, inhibitor; isolated heart mitochondria; added: succinate and coenzyme Q2 with DCPIP).
`O=C(O)CNCC(=O)O` gave an IC50 of 122 µM (Metallo-beta-lactamase type 2 (blaNDM-1, Klebsiella pneumoniae, UniProt C7C422); enzyme activity, inhibitor; added: meropenem substrate).
`COc1ccc2nc(Sc3ncnc4c3nnn4Cc3ccccc3)oc2c1` gave an IC50 of 1.6 ± 0.2 µM (NOX5; enzyme activity, inhibitor, Amplex Red; cell-free membranes).
The IC50 of `COc1ccc2c(c1)c(CC(=O)OCc1ccc(OC(=O)OCCC(C)(C)C)cc1)c(C)n2C(=O)c1ccc(Cl)cc1` is reported as 2.29 ± 0.94 µM (ache; enzyme activity, inhibitor, Ellman).
With `CCCC[C@@H]1NC(=O)[C@H](CO)NC(=O)[C@@H]2CSSC[C@H](NC(=O)CN)C(=O)N[C@@H](CSSC[C@@H](C(N)=O)NC(=O)[C@H](CC(C)C)NC(=O)[C@H](CCC(=O)O)NC(=O)[C@@H]3CCCN3C(=O)[C@H](Cc3c[nH]cn3)NC(=O)[C@H](CC(N)=O)NC1=O)C(=O)N[C@@H](CO)C(=O)N[C@@H](Cc1c[nH]cn1)C(=O)N1CCC[C@H]1C(=O)N[C@@H](C)C(=O)N2` the IC50 was 0.0199 µM (Chrna3/Chrnb2/Chrna6 with beta3 subunit; ion current, antagonist, two-electrode voltage clamp; Xenopus laevis oocytes; added: 100 µM acetylcholine).
The IC50 of `Brc1ccc2nc(Sc3ncnc4c3nnn4Cc3ccccc3)oc2c1` is reported as over 100 µM (NOX4; enzyme activity, inhibitor, Amplex Red; cell-free membranes).
With `CSc1nc(Cl)cc(Sc2nnc(-c3cc(C(F)(F)F)cc(C(F)(F)F)c3)[nH]2)n1` the MIC was 2 mg/L (≈ 4.24 µM) (Escherichia coli; MC4100; 42 °C, added: PMBN 25 µg/mL).
The Ki of `CCCN1CCN(c2ccc3c(c2)C2CC3CCN2C(=O)OCc2ccccc2)CC1` (centres unmarked) is reported as 3.85 µM (Sodium-dependent noradrenaline transporter (SLC6A2, Homo sapiens, UniProt P23975); binding, radioligand binding).
The IC50 of `CCC(N)Cc1c[nH]c2ccc(Cl)cc12` (centres unmarked) is reported as 1.84 ± 0.15 µM (Sodium-dependent dopamine transporter (Slc6a3, Rattus norvegicus, UniProt P23977); dopamine uptake, inhibitor; rat brain synaptosomes).
`Clc1ccc2nc(Sc3ncnc4c3nnn4Cc3ccccc3)oc2c1` gave an IC50 of 0.7 ± 0.02 µM (NOX5; enzyme activity, inhibitor, Amplex Red; cell-free membranes).
`CC(C)C[C@@H]1NC(=O)[C@H](CC(=O)O)NC(=O)[C@@H]2CCCN2C(=O)[C@H](Cc2c[nH]cn2)NC(=O)[C@H](CC(N)=O)NC(=O)[C@H](C(C)C)NC(=O)[C@H](CO)NC(=O)[C@@H]2CSSC[C@H](NC(=O)CN)C(=O)N[C@@H](CSSC[C@@H](C(N)=O)NC1=O)C(=O)N[C@@H](CO)C(=O)N[C@@H](Cc1c[nH]cn1)C(=O)N1CCC[C@H]1C(=O)N[C@@H](C)C(=O)N2` gave an IC50 of 0.0651 µM (Neuronal acetylcholine receptor; alpha3/beta2; ion current, antagonist, two-electrode voltage clamp; Xenopus laevis oocytes; added: 100 µM acetylcholine).
With `N=C(N)NCCC[C@@H]1NC(=O)[C@@H](NC(=O)CNC(=O)[C@@H]2CCCN2C(=O)[C@@H](N)CCC(N)=O)CSSC[C@@H](C(N)=O)NC(=O)[C@H](Cc2c[nH]c3ccccc23)NC(=O)[C@H](CCCNC(=N)N)NC(=O)[C@H](CO)NC(=O)[C@H](Cc2c[nH]c3ccccc23)NC(=O)[C@H](Cc2c[nH]c3ccccc23)NC1=O` the IC50 was 2.1 µM (Neuronal acetylcholine receptor; alpha4/beta4 (Homo sapiens, UniProt P30926+P43681); ion current, antagonist, two-electrode voltage clamp; Xenopus oocytes; added: ACh 6 µM).

For quick reference, copied from above:
With `O=C(O)c1cccc(S(=O)(=O)Nc2ccccc2C(=O)O)c1` the IC50 was over 160 µM (Salicylate synthetase, Irp9; salicylate production, inhibitor; pH 7.5, 25 °C, added: chorismate 2 µM).
For `COc1ccc(C(=O)NC(Sc2ccc(Cl)cc2)C(Cl)(Cl)Cl)cc1` (centres unmarked), the IC50 was 2.23 ± 0.58 µM (TRPA1; MO-induced calcium influx, antagonist, FLIPR calcium; 3 min preincubation, added: 30 µM mustard oil).
`C[C@H](Cc1ccc(O)c(O)c1)[C@@H](C)Cc1ccc(O)c(O)c1` — result for “amount in dermis”: 7.67 ± 1.28 µg (human skin; 3% solution, 8 h, skin UV-treated 30 min).
